Published values pooled from the literature.
Parts stem from different laboratories: compare values within a part only.
Chain of UniProt Q96SW2 (whole entry, looked up): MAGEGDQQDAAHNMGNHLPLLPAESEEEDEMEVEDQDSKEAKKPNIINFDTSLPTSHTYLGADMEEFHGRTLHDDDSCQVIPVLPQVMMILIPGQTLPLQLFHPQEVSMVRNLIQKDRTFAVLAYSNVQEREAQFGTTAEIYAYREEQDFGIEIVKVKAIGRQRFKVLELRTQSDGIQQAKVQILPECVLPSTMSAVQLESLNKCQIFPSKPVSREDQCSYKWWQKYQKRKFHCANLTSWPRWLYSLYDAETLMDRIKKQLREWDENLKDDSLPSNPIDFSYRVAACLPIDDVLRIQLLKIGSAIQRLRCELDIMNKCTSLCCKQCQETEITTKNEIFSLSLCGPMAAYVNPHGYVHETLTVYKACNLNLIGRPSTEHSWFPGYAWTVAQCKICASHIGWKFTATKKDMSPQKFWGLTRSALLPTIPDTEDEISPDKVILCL
Chain of UniProt Q9UKS7 (whole entry, looked up): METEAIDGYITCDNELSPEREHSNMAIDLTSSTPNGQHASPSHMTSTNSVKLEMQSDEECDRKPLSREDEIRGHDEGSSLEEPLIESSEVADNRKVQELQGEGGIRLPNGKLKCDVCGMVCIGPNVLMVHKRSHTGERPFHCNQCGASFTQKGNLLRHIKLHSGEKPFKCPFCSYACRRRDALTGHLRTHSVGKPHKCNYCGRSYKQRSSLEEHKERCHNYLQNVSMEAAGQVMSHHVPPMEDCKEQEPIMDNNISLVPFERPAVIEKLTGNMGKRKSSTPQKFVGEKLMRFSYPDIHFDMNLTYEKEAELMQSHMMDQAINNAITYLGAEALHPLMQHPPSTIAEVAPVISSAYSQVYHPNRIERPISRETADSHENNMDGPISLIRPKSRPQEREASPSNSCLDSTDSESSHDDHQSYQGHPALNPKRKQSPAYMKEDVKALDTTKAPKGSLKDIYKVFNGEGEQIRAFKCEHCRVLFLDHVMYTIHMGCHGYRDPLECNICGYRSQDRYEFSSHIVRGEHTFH
Chain of UniProt P9WI81 (whole entry, looked up): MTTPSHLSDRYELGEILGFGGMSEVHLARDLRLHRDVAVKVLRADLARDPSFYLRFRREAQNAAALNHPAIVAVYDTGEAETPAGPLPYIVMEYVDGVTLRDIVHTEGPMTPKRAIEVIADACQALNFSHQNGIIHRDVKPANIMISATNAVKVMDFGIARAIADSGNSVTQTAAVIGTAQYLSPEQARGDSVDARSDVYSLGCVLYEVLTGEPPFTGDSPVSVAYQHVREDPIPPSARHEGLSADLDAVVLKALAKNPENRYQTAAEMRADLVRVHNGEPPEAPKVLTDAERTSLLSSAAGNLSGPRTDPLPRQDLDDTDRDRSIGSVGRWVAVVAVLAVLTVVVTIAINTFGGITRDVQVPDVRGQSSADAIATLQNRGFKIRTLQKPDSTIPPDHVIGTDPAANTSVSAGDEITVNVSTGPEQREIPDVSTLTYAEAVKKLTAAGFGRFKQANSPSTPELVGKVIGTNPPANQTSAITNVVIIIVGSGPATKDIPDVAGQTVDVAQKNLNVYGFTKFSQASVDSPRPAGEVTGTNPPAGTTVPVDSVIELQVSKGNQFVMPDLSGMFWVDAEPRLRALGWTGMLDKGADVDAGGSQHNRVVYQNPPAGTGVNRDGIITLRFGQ

Sample 1 — organism: Sarcocystis neurona; effect on: parasite activity; concentration: 10 µM; time: 96 h
`CCN1CCCC1CNC(=O)c1cc(S(=O)(=O)CC)c(N)cc1OC` (stereo not drawn): activity class “inactive”.
For `CCCCCCCCCCC[C@@H](C[C@@H]1OC(=O)[C@H]1CCCCCC)OC(=O)[C@H](CC(C)C)NC=O`, activity class read “inactive”.
For `CC(=O)NC[C@H]1CN(c2ccc(N3CCOCC3)c(F)c2)C(=O)O1`, activity class read “inactive”.
`C[N+]1(C)CCCC(OC(=O)C(O)(c2ccccc2)c2ccccc2)C1` (stereo not drawn) — result for activity class: “inactive”.
`CC(C)NCC(O)c1cc(O)cc(O)c1` (stereo not drawn): activity class “inactive”.
For `CCCCNc1cc(C(=O)O)cc(S(N)(=O)=O)c1Oc1ccccc1`, activity class read “inactive”.
`[H]/N=C(/NCCCCC)N/N=C/c1c[nH]c2ccc(OC)cc12` — result for activity class: “active”.
Under activity class, `CCC(C)(C)C(=O)O[C@H]1C[C@@H](C)C=C2C=C[C@H](C)[C@H](CC[C@@H]3C[C@@H](O)CC(=O)O3)[C@H]21` is recorded as “inactive”.

Sample 2 — effect on: enzyme activity; mode: inhibitor; concentration: 10 µM
Target: Calcium/calmodulin-dependent protein kinase type II subunit alpha (CAMK2A, Homo sapiens, UniProt Q9UQM7)
Chain of UniProt Q9UQM7 (whole entry, looked up): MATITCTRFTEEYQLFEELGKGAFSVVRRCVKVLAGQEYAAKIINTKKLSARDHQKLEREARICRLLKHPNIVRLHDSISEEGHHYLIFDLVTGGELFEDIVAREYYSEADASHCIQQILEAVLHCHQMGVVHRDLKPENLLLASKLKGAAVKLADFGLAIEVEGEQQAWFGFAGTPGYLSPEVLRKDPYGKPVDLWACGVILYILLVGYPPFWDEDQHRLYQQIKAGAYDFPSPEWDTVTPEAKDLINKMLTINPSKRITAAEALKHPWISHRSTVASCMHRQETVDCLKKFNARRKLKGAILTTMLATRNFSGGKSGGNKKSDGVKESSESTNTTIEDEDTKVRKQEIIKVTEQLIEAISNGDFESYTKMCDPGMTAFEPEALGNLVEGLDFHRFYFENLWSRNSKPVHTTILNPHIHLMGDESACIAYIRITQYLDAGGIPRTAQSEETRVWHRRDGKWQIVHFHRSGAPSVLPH
The inhibition of `Cn1cc(-c2cc3c(N4CCN(c5ncc([C@@](C)(N)c6ccc(F)cc6)cn5)CC4)ncnn3c2)cn1` is reported as -3%.
`C[C@@H]1O[C@@H](O[C@H]2C(=O)c3c(O)cc(O)cc3O[C@H]2c2ccc(O)c(O)c2)[C@H](O)[C@H](O)[C@H]1O` has an inhibition of -7%.
For `O=C(O)CCc1nc(-c2ccccc2)c(-c2ccccc2)o1`, the inhibition was 6%.
`Cc1ccc(C(=O)c2cc(O)c(O)c([N+](=O)[O-])c2)cc1` gave an inhibition of 0%.
`CC(C)CCC[C@@H](C)[C@H]1CC[C@H]2[C@@H]3CC[C@H]4CC(=O)CC[C@]4(C)[C@H]3CC[C@]12C` has an inhibition of -7%.
`NC(CCCC(=O)O)C(=O)O` (stereo not drawn) gave an inhibition of -14%.
For `CO[C@@H]1[C@H](N(C)C(=O)c2ccccc2)C[C@H]2O[C@]1(C)n1c3ccccc3c3c4c(c5c6ccccc6n2c5c31)C(=O)NC4`, the inhibition was 40%.
The inhibition of `NC(=O)c1ccc[n+]([O-])c1` is reported as -3%.

Further values, each from its own experiment
`O=C(Nc1cccnn1)N1CC(C/C=C/c2cncc(Oc3ccc(C(F)(F)F)cn3)n2)C1` has a remaining binding of 87% (Serine/threonine-protein kinase PknB (pknB, Mycobacterium tuberculosis, UniProt P9WI81); cell-free assay, competition with immobilised ligand; 1 µM).
For `O=C1CCC(N2Cc3c(ccc4c3OCC43CCC(Oc4ccccc4)CC3)C2=O)C(=O)N1` (stereo not drawn), the protein remaining was 99.5% (CRBN/Zinc finger protein Helios (Homo sapiens, UniProt Q96SW2+Q9UKS7); degrader, HiBiT; HEK293; 13.72 nM).

For quick reference, copied from above (sample 1):
`C[N+]1(C)CCCC(OC(=O)C(O)(c2ccccc2)c2ccccc2)C1` (stereo not drawn) — result for activity class: “inactive”.
`CC(C)NCC(O)c1cc(O)cc(O)c1` (stereo not drawn): activity class “inactive”.
For `CCCCNc1cc(C(=O)O)cc(S(N)(=O)=O)c1Oc1ccccc1`, activity class read “inactive”.
